Published values of several laboratories.
Numbered parts are unrelated; each lists some results of a single study. Positions count from the first letter of the parent shown.

Study 1
Target: CCNE2, cyclin fold, Cln2 fusion (human)
Technique: yeast growth competition, sequencing
Sample: yeast
Notes: weak parent motif
Relative to: not given
Reading: higher = stronger binding
Parent: MICAL3 docking peptide (human); LQLRRQLSFSEDS; partner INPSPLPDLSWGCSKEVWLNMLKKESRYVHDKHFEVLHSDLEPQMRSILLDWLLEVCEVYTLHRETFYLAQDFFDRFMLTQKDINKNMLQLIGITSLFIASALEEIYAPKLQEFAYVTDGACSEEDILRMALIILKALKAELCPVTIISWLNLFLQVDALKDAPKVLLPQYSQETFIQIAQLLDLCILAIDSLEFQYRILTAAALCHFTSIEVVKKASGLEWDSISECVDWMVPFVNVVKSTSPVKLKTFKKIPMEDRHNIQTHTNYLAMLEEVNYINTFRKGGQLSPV
| Substitution | normalised enrichment score |
| --- | --- |
| LQLRAQLSFSEDS [R5A] | -0.0812 |
| LQLRRQLSFSWDS [E11W] | 0.62 |
| LQHRRQLSFSEDS [L3H] | 0.594 |
| LQLRIQLSFSEDS [R5I] | 0.366 |
| LQLRRQLSFSETS [D12T] | 0.604 |
| LQLRVQLSFSEDS [R5V] | 0.168 |
| LQLRRQESFSEDS [L7E] | 0.354 |
| LQPRRQLSFSEDS [L3P] | 0.719 |
| LQLRRQLSKSEDS [F9K] | 0.465 |
| LQLRRQLSFSESS [D12S] | 0.381 |
| LTLRRQLSFSEDS [Q2T] | 0.17 |
| LQLRRQLSFSEFS [D12F] | 0.915 |
| LQLSRQLSFSEDS [R4S] | 0.382 |
| LQLRRELSFSEDS [Q6E] | 0.0958 |
| LQLLRQLSFSEDS [R4L] | 0.0935 |
| LQLRRQLSFSEVS [D12V] | 0.713 |
| LQLRRDLSFSEDS [Q6D] | -0.151 |
| LFLRRQLSFSEDS [Q2F] | 0.625 |
| LQLRRQLSFSVDS [E11V] | 0.397 |
| LQLRRQLSPSEDS [F9P] | 0.0536 |

Study 2
Target: Histone acetyltransferase KAT6A, winged helix 2, GST fusion (KAT6A, Homo sapiens, UniProt Q92794, residues 85-181)
Technique: protein binding microarray
Molecule type: double-stranded DNA, one strand shown
Sample: in vitro
Tested at: not given
Notes: 8-mer, flanks averaged, mean of 2 arrays, mostly near background
Relative to: not given
Reading: higher = stronger binding
Construct (chain): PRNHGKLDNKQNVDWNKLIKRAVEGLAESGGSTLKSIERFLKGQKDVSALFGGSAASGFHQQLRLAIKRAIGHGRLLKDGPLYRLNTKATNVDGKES
| Strand | E-score |
| --- | --- |
| CCGACGTA | -0.105 |
| CCGTGAAG | -0.0271 |
| ACCTCCTG | -0.142 |
| CTAAGAAG | 0.0991 |
| GGTTCTTA | 0.00726 |
| GAGCTAAC | -0.0672 |
| GAGAGTGA | 0.0521 |
| CGCTTTCC | 0.0804 |
| CATGCCCA | -0.0977 |
| ACCCTGCC | -0.00348 |
| ACTAGAAT | -0.116 |
| AATGTTTA | -0.0994 |
| GGGGCATA | -0.0241 |
| ATCGTATC | -0.115 |

Study 3
Target: Phosphate system positive regulatory protein PHO4, full length, GST-tagged (PHO4, Saccharomyces cerevisiae, UniProt P07270, residues 1-312)
Technique: competition protein-binding microarray
Molecule type: double-stranded DNA, one strand shown
Sample: in vitro
Tested at: 2 µM
Notes: whole 60-bp probe, lowest competitor level
Added: Cbf1 competitor, 0.05 µM
Reading: higher = stronger binding
Constant ends, left off below: … GTCTTGATTCGCTTGACGCTGCTG
Target sequence (chain): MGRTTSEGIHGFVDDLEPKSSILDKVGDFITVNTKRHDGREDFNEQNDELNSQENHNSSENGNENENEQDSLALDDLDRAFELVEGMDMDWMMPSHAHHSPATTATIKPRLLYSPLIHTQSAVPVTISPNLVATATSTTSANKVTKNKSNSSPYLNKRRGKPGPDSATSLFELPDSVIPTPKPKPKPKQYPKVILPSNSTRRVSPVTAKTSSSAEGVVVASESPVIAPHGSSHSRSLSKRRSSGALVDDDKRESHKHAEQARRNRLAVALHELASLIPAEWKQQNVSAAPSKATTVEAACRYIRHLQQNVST
| Strand | fluorescence intensity |
| --- | --- |
| AACGAGTCTGACGATGACGTGACTCGCTCCACTAAG | 3910 a.u. |
| AATGCGGCCCAAAAGCACGTGTGGAAAAAAAGTATG | 17300 a.u. |
| AGACTTACCAGAATCGACATGACAGATAACGACAAG | 3800 a.u. |
| CGTCCTAGTGATTGTGGTGTGGGTGCCATGAGGAAG | 8360 a.u. |
| GTAGACGCAAACCATCACGTACTTCATTTGAGGTTC | 5600 a.u. |
| TTGTTTGCCTCCGTCGGTGTGACGGAGTTGTGGCCT | 3570 a.u. |
| CACTGTTGGTTCGACACCGTGGGTAAAGATGACAGT | 10000 a.u. |
| CATACCCAACCTTGTCACAGAACTTAAGATATTTGT | 3520 a.u. |
| CTAACGAAGGTTTGTCTTGTGGGTGACAAGCCAAGT | 4190 a.u. |
| CTTCTGTAAATTTGGACAGTGGGTGGACGCGCCCCG | 3910 a.u. |
| TGCGCAACAACTTGCCGCGTGGGTGTATGTCTAGAA | 11300 a.u. |
| CCAGCGCATCTACTGAACCTGATCCAAAACTCCAAA | 2580 a.u. |
| CTAACGAAGGTTTGAGCAGTGGGTGACAAGCCAAGT | 3400 a.u. |
| TGCGCAACAACTTGGAGTGTGGGTGTATGTCTAGAA | 5770 a.u. |
| TATCCAAGTGCCCATCACGTTTTTTTATTTAATGTA | 14000 a.u. |
| TCTCTAGGTGGTTGGGCAAATCTATCAATATTCTTG | 2920 a.u. |
| ATTTTTTTCTTGAAACACGTGAAGCCGAGGAGACCA | 14900 a.u. |
| TGCGCAACAACTTGCATAGTGGGTGTATGTCTAGAA | 5430 a.u. |

Study 4
Target: Interferon regulatory factor 5, full length, phosphomimetic (IRF5, Homo sapiens, UniProt Q13568-2, residues 1-514, S451D/S453D/S456D/S462D)
Technique: protein-binding microarray
Molecule type: double-stranded DNA, one strand shown
Sample: in vitro
Tested at: 940 nM top
Notes: 60-bp whole probe
Added: salmon DNA 0.4 mg/ml
Relative to: random background probes
Reading: higher = stronger binding
Constant ends, left off below: GCCTAGCAC … GTCTTGATTCGCTTGACGCTGCTG
| Strand | fitted relative affinity |
| --- | --- |
| GACGGTATCCTTTTCCTCACGTGCTAG | 0.777 z-score |
| TTAGGTATCGCCACTGGGTTAGTGCTA | 2.46 z-score |
| TTAGGTATCGTACTGCTTTAGTGCTAG | 2.6 z-score |
| GACGATATTAGACTGGAGACGTGCTAG | -0.19 z-score |
| GGTACAAACTTGTAATTATAGTGCTAG | -0.525 z-score |
| GTAGGTATCCTTCTCCTTTAGTGCTAG | 0.551 z-score |
| TTAGGTTGCGGTTTCGGTTAGTGCTAG | 7.51 z-score |
| ATATTTCCCAGAACTGGAGTGGTGCTA | 0.0501 z-score |
| GACGCACTGGGGTATCGGGACGTGCTA | 0.491 z-score |
| CGCTTTCTTTAACTCATTTTGTGCTAG | 1.97 z-score |
| GACGGTTACGACTATCGGGACGTGCTA | 0.0109 z-score |
| GACGGTTACCTACTGCTGACGTGCTAG | -0.245 z-score |
| TTAGGTCTCGGTTTCGGTTCGTGCTAG | 9.49 z-score |
| TTAGGAATGGGTCTCGGTTAGTGCTAG | 1.64 z-score |
| TTAGGTTTCAACTTTCGGTTAGTGCTA | 4.41 z-score |
| TCAACTTTAGGTTCCCAACTGTGCTAG | -0.00278 z-score |
| TTAAGTTTCGACTATCGGTTAGTGCTA | 9.63 z-score |
| TTAGGTTTCTGGACTGGGTTAGTGCTA | 2.48 z-score |
| GACGGTTTCGACTATGGGGACGTGCTA | 7.7 z-score |
| TTAGGTATCCCACTGCTTTAGTGCTAG | 0.294 z-score |
| TACTATATGCATGTAAATAAGTGCTAG | 0.192 z-score |
| TTAGAACTGGGGTATCGAATAGTGCTA | 0.715 z-score |
| TTAGGACTGCTTCTCCTTTGGTGCTAG | -0.31 z-score |
| GATGGTTTCGGTTTCGGGACGTGCTAG | 15.2 z-score |
| TGGGTATTTTTTCTGAACCAGTGCTAG | 1.28 z-score |

Study 5
Target: ABI1, truncated, D143A, DHFR fusion (Arabidopsis thaliana)
Technique: DHFR PCA, deep sequencing
Sample: yeast
Notes: methotrexate growth selection, single substitutions
Added: (+)-ABA 0.11 µM
Relative to: wild-type fitted maximum
Reading: higher = stronger binding
Parent: PYL1, truncated, DHFR fusion (Arabidopsis thaliana); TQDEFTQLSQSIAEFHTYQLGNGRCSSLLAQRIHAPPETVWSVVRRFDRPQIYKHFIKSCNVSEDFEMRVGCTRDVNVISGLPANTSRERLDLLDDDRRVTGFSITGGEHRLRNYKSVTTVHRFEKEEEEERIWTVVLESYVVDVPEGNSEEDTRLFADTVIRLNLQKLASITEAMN; partner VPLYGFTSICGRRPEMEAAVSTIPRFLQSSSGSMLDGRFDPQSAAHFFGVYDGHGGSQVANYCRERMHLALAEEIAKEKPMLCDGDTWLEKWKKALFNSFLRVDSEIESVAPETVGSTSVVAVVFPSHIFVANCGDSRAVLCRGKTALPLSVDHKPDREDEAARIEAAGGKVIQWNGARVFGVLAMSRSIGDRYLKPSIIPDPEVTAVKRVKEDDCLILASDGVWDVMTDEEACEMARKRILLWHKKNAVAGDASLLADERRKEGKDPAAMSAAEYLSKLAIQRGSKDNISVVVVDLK
| Substitution | relative binding score [%] |
| --- | --- |
| I12N | 4.87 |
| D159W | -1.85 |
| K58G | -5.13 |
| A84Y | 93.7 |
| V161D | 5.84 |
| L138R | -0.31 |
| V143E | -1.49 |
| R90F | -2.2 |
| N61L | 25.5 |
| L29N | 6.09 |
| R163L | -0.488 |
| T120C | -5.07 |
| W134M | 38.3 |
| R45G | -3.72 |
| H16E | -1.08 |
| G148S | -4.27 |

Repeated from above (study 3):
| Strand | fluorescence intensity |
| --- | --- |
| AACGAGTCTGACGATGACGTGACTCGCTCCACTAAG | 3910 a.u. |
| AATGCGGCCCAAAAGCACGTGTGGAAAAAAAGTATG | 17300 a.u. |
| AGACTTACCAGAATCGACATGACAGATAACGACAAG | 3800 a.u. |
| CGTCCTAGTGATTGTGGTGTGGGTGCCATGAGGAAG | 8360 a.u. |
| GTAGACGCAAACCATCACGTACTTCATTTGAGGTTC | 5600 a.u. |
| TTGTTTGCCTCCGTCGGTGTGACGGAGTTGTGGCCT | 3570 a.u. |
| CACTGTTGGTTCGACACCGTGGGTAAAGATGACAGT | 10000 a.u. |
